# Results from different studies.
# Lines come from different studies, so protocols differ. ± marks the error that the study gave.
# CA9: Carbonic anhydrase 9 (CA9, Homo sapiens, UniProt Q16790)
# Methionyl-tRNA synthetase, putative: Methionyl-tRNA synthetase, putative (Trypanosoma brucei brucei, UniProt Q38C91)
# Integrin alpha-5/beta-1: Integrin alpha-5/beta-1 (Homo sapiens, UniProt P05556+P08648)
# Chain of UniProt P08648 (whole entry, looked up): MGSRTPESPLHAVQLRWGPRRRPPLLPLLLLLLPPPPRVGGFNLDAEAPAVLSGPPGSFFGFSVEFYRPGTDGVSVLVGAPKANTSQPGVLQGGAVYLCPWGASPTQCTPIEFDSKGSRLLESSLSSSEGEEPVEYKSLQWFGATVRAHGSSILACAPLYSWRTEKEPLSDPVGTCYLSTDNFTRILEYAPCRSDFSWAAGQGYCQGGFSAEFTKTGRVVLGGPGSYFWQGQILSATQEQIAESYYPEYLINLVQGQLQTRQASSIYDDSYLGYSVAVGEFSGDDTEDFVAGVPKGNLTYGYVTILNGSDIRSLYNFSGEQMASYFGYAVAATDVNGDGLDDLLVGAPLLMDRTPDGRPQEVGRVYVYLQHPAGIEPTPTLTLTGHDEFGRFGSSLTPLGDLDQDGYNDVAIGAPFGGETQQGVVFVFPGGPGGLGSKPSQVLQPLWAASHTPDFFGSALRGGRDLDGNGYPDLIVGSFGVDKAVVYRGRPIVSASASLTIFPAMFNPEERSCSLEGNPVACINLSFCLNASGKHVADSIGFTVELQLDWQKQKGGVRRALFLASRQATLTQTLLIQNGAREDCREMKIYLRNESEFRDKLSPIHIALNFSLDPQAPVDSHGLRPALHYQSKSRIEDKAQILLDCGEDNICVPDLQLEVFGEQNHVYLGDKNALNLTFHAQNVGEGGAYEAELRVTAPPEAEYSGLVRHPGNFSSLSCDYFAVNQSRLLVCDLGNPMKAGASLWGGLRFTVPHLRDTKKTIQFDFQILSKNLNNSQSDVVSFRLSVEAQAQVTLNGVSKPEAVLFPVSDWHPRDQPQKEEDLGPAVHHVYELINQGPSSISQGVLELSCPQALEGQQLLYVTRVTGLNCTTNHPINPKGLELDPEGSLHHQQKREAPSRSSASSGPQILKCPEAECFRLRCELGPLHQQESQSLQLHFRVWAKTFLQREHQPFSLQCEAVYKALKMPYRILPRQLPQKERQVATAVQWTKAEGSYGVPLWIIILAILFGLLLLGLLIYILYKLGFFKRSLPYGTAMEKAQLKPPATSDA
# Chain of UniProt P05556 (whole entry, looked up): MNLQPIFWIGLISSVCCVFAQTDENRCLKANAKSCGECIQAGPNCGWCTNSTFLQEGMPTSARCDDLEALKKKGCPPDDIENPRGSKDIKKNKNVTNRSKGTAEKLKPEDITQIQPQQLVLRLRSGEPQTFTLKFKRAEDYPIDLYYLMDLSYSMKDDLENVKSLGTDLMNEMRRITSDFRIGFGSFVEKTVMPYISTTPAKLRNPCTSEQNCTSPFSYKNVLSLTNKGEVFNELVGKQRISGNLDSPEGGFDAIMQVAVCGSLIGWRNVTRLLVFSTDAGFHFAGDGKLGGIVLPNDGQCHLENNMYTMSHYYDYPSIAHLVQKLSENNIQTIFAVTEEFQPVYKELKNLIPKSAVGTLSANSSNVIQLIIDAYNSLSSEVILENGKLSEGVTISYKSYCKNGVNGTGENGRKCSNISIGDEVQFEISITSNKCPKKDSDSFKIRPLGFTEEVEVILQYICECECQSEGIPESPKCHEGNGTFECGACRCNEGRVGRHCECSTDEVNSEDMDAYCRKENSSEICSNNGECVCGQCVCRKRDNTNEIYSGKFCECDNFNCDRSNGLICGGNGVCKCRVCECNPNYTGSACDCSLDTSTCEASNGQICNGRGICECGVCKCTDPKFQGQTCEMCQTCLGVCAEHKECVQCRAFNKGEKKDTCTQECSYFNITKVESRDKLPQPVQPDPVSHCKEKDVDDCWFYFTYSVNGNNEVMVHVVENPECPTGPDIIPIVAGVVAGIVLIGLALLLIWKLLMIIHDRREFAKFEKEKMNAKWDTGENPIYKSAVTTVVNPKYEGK
# CELF1 del215-384: CUGBP Elav-like family member 1 (CELF1, Homo sapiens, UniProt Q92879, del215-384)
# Chain of UniProt Q92879 (whole entry, unmodified, looked up): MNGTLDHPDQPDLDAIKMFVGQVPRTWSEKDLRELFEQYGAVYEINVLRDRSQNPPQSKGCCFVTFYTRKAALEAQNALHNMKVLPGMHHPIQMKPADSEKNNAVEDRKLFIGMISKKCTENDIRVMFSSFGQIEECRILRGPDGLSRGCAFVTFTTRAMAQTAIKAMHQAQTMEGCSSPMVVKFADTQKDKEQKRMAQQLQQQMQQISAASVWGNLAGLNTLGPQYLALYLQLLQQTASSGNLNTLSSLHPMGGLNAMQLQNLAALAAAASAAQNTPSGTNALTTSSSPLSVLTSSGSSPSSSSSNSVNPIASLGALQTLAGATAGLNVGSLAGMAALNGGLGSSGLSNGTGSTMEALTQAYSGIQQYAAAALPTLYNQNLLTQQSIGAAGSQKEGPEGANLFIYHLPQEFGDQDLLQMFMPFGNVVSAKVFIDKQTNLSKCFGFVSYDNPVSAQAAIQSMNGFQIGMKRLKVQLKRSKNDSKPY
# PSMB5: Proteasome Macropain subunit MB1 (PSMB5, Homo sapiens, UniProt P28074)
# Chain of UniProt P28074 (whole entry, looked up): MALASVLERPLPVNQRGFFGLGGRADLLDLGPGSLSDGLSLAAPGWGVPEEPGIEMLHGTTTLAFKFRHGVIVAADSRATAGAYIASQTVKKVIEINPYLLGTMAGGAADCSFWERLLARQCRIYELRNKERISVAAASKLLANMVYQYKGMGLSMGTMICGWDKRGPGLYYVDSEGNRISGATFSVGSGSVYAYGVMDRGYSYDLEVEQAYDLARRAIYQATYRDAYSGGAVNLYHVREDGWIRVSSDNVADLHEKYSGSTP
# CD274 with PD-1: Programmed cell death 1 ligand 1, with PD-1 (CD274, Homo sapiens, UniProt Q9NZQ7)
# Chain of UniProt Q9NZQ7 (whole entry, looked up): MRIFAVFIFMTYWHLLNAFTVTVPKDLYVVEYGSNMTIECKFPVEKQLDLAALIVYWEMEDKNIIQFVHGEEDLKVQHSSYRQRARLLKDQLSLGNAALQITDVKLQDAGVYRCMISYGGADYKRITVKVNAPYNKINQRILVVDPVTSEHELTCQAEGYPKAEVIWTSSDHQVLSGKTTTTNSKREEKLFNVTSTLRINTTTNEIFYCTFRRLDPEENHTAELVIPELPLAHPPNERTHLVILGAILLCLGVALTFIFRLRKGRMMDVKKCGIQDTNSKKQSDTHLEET
# Chain of UniProt Q96KQ7 (whole entry, looked up): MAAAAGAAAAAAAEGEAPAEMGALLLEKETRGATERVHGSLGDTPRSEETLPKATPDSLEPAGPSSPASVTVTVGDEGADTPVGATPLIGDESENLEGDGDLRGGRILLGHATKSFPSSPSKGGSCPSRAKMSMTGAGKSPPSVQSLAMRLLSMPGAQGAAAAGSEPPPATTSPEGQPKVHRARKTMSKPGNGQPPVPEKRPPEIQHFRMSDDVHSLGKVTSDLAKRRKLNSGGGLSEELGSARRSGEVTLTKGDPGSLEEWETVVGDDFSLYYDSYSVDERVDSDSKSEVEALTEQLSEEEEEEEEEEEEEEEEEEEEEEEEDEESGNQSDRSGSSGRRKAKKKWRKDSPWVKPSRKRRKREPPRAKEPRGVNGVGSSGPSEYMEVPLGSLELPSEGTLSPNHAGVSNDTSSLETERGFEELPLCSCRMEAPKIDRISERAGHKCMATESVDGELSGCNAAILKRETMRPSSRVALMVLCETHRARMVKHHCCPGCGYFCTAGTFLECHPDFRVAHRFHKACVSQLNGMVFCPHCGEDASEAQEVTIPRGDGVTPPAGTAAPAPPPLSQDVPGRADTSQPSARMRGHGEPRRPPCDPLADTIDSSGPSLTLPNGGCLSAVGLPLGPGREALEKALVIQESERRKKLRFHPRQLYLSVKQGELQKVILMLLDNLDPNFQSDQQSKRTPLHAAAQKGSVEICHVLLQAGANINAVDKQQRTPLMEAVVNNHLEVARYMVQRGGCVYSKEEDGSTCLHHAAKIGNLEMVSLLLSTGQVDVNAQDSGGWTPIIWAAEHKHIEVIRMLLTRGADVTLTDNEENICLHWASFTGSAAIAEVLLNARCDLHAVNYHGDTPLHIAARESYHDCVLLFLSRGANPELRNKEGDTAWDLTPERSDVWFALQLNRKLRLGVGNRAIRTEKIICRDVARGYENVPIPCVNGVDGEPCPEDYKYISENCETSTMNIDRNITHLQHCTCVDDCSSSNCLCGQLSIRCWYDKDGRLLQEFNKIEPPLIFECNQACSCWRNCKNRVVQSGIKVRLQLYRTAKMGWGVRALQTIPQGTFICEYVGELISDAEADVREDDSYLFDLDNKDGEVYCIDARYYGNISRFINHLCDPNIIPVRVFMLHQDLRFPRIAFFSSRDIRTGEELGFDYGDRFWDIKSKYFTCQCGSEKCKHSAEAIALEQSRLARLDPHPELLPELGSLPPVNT
# Chain of UniProt Q12851 (whole entry, looked up): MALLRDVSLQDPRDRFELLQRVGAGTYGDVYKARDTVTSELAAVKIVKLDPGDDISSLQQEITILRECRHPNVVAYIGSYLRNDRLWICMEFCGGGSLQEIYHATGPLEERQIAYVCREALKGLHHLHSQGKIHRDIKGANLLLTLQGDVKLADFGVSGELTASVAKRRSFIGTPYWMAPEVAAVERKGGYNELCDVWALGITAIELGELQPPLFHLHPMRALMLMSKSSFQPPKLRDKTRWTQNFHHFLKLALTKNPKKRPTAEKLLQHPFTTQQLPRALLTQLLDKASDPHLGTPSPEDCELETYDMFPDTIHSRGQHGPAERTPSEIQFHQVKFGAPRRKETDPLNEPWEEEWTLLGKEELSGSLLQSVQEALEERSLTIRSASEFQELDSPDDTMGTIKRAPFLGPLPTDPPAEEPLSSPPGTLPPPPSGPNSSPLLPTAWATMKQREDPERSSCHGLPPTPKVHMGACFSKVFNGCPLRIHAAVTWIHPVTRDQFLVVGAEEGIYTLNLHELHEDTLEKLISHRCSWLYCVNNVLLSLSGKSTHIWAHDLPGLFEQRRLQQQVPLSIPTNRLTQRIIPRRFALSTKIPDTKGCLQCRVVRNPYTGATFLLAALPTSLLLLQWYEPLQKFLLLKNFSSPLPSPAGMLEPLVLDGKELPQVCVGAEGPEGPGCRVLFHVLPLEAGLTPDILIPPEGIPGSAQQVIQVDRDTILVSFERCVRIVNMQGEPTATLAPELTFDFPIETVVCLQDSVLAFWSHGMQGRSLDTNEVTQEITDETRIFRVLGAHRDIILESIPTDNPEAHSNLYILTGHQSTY
SMILES,target,assay,system,setting,scale,IC50 [nM]
Fc1ccc(Nc2nc(NC3CCCCC3)c3cc(C(F)(F)F)ccc3n2)cc1F,"ADRB2 (Homo sapiens, UniProt P07550, T164V)","β-arrestin2 recruitment, antagonist, BRET",HEK293,"mutant T164V, together with: isoprenaline 1 µM",,100
COc1ccccc1N1CCN(c2nc(Nc3ccc(C)cc3C)c3nccnc3n2)CC1,"CXCR4 (Homo sapiens, UniProt P61073)","β-arrestin recruitment, antagonist",,,,32000
CCN(CC)CC(=O)Nc1cccc(-n2cc(-c3ccc4ccc(-c5cn(-c6cccc(NC(=O)CN(CC)CC)c6)nn5)cc4c3)nn2)c1,"PRKACA (Homo sapiens, UniProt P17612)","enzyme activity, inhibitor",,,,> 10000
CC(=O)Nc1ccc(CN(CC(=O)Nc2ccccc2F)C(=O)c2ccc(S(N)(=O)=O)c(C)c2)cc1,CA9,"enzyme activity, inhibitor",,,,41.7
O=C(NC1CCC2(CCCC2)CC1)c1ccc(-c2ccccc2)cc1,"TRPM8 (Homo sapiens, UniProt Q7Z2W7)","ion current, antagonist, patch clamp",,,,106
CC(C)C[C@H](NC(=O)[C@H](Cc1ccc(CN)cc1)NC(=O)[C@H](Cc1ccccc1)N=[N+]=[N-])C(=O)N[C@@H](CC1CCC(C2CCCCC2)CC1)C(=O)[C@@]1(C)CO1 (some centres unmarked),"Proteasome subunit beta type-9 (Homo sapiens, UniProt P28065)",competitive ABPP,Raji cell lysate,,,> 10000
Cc1cc(C(=O)Nc2ccc(NC(=O)c3ccco3)cc2)c(C)n1Cc1ccc(S(N)(=O)=O)cc1,CA9,"enzyme activity, inhibitor",,,,14.1
Fc1ccc2[nH]c(NCCCNCc3cc(Cl)cc(Cl)c3)nc2c1,"Methionyl-tRNA synthetase, putative","enzyme activity, inhibitor",,,,< 10
CCOc1cc(CN2CCC3(CC2)CN(c2ccc(C(=O)O)cc2)C(=O)N3)c(C2CC2)cc1C,"SSTR5 (Homo sapiens, UniProt P35346, W190A)","cAMP level, agonist, GloSensor",AD293,"W190A mutant, together with: CST17 EC80 and forskolin",,0.288
CNc1cccc(CCC(=O)NCC(=O)NC[C@H](NC(=O)c2c(Cl)cc(-c3ccccc3)cc2Cl)C(=O)O)n1,Integrin alpha-5/beta-1,"cell adhesion, inhibitor",SW480,together with: fibronectin 0.3 µg/mL,,2000
Clc1cc(Cl)c2c(c1)[C@H](NCCCNc1nc3cccnc3[nH]1)CCO2,"Methionyl-tRNA synthetase, putative","enzyme activity, inhibitor",,,,< 10
CCc1n[nH]c(=S)[nH]1,CELF1 del215-384,"CELF1-RNA binding, inhibitor, fluorescence polarization",,"20 nM CELF1, together with: 10 nM RNA",,5000 ± 670
Cc1cc(NC2CCN(C)CC2)ccc1-c1cc2c(N3CCC[C@H](C(=O)NCc4ccc(OC(F)(F)F)cc4)C3)ncnc2[nH]1,"MAP4K2 (Homo sapiens, UniProt Q12851)","enzyme activity, inhibitor, mobility shift",,,,1530
CCCCCCCCCCCCCC(=S)NCCCC[C@H](NS(C)(=O)=O)C(=O)N[C@H](C)C(=O)N[C@@H](CCCNC(=N)N)C(N)=O,"SIRT1 (Homo sapiens, UniProt Q96EB6)","enzyme activity, inhibitor, HPLC",,,,7700
CC(C)C[C@H](NC(=O)[C@H](Cc1ccc(CN)cc1)NC(=O)[C@H](Cc1ccccc1)N=[N+]=[N-])C(=O)N[C@@H](CCC1CCCCC1)C(=O)[C@@]1(C)CO1,PSMB5,competitive ABPP,Raji cell lysate,,,> 10000
CC1(C)C(=O)N=C2C1=C(O)C(=O)c1ccccc12,"EHMT2 (Homo sapiens, UniProt Q96KQ7)","enzyme activity, inhibitor",,,,3200
Cc1ccc2nc(C)n(/N=C/c3ccc(C(=O)O)cc3)c(=O)c2c1,"Phospholipase A2, membrane associated (Homo sapiens, UniProt P14555)","enzyme activity, inhibitor, colorimetric",,,,101000 ± 6160
Cc1c(COc2cc(OCc3cccc(C#N)c3)c(CNC(CO)(CO)CO)cc2Cl)cccc1-c1cccc(OCCCCCCC(=O)NO)c1,CD274 with PD-1,"PD-1/PD-L1 binding, inhibitor, HTRF",,,,28
COc1cc(F)c(-c2cc(Cn3cnc4c(N)ncnc43)c(N3CCC[C@](N)([C@H](O)C(F)F)C3)cn2)cc1F,"SETDB1 (Homo sapiens, UniProt Q15047)","enzyme activity, inhibitor",,,,> 10000
N[C@@H](CCC(=O)N[C@@H](CS[Se]Cc1ccc(-c2cccc(C(O)c3ccc(Cl)c(Cl)c3)c2)cc1)C(=O)NCC(=O)O)C(=O)O (some centres unmarked),"PTPN1 (Homo sapiens, UniProt P18031)","enzyme activity, inhibitor",,"together with: pNPP, GSH 1 mM",,40900
CN1CCN(c2ccc(-c3cncc(Cl)c3N3CCC4(CCNC4=O)CC3)cc2)CC1,"Cyclin-dependent kinase 19, with cyclin C (CDK19, Homo sapiens, UniProt Q9BWU1)",ligand displacement,,,,4
CCCCCCC1CCC/C1=N\NC(N)=S (centres unmarked),"Scavenger receptor class B member 1 (Mus musculus, UniProt Q61009)","transporter uptake, inhibitor",,,,11
OB(O)c1sccc1/C=N/OCc1ccccc1,"Prothrombin (F2, Homo sapiens, UniProt P00734)","enzyme activity, inhibitor",,,,> 100000
N#C/N=C(\N)Nc1cccc(C(=O)NCC(=O)NC[C@H](NC(=O)c2c(Cl)cc(-c3ccccc3)cc2Cl)C(=O)O)c1,Integrin alpha-5/beta-1,"cell adhesion, inhibitor",SW480,together with: fibronectin 0.3 µg/mL,,50.1
Cc1c(COc2cc(OCc3cccc(C#N)c3)c(CN3CCCC[C@@H]3C(=O)O)cc2Cl)cccc1-c1cccc(OCCCCCCC(=O)NO)c1,CD274 with PD-1,"PD-1/PD-L1 binding, inhibitor, HTRF",,,,88.1
Cc1cccc(-c2n[nH]c(=S)[nH]2)c1,CELF1 del215-384,"CELF1-RNA binding, inhibitor, fluorescence polarization",,"20 nM CELF1, together with: 10 nM RNA",,480 ± 140
COC1CCC(C[C@H](NC(=O)[C@H](CC(C)C)NC(=O)[C@H](Cc2ccc(CN)cc2)NC(=O)[C@H](Cc2ccccc2)N=[N+]=[N-])C(=O)[C@@]2(C)CO2)CC1 (some centres unmarked),PSMB5,competitive ABPP,Raji cell lysate,,,8110
N#Cc1c(N)nc2c(c1-c1ccc(CO)o1)Cc1cc(O)ccc1-2,"Thymocyte selection-associated high mobility group box protein TOX, with KAT7 (Homo sapiens, UniProt O94900)","TOX-KAT7 binding, inhibitor, ELISA",,,no inhibition at 10 µM,510
Cc1nn(-c2cccc(N)c2)c(=O)c2cnc(Nc3ccc(N4CCNCC4)cc3)nc12,"BTK (Homo sapiens, UniProt Q06187)","kinase activity, inhibitor, SelectScreen kinase profiling",,,,> 10000

# For quick reference, copied from above:
SMILES,target,assay,system,setting,scale,IC50 [nM]
OB(O)c1sccc1/C=N/OCc1ccccc1,"Prothrombin (F2, Homo sapiens, UniProt P00734)","enzyme activity, inhibitor",,,,> 100000
N#C/N=C(\N)Nc1cccc(C(=O)NCC(=O)NC[C@H](NC(=O)c2c(Cl)cc(-c3ccccc3)cc2Cl)C(=O)O)c1,Integrin alpha-5/beta-1,"cell adhesion, inhibitor",SW480,together with: fibronectin 0.3 µg/mL,,50.1
Cc1c(COc2cc(OCc3cccc(C#N)c3)c(CN3CCCC[C@@H]3C(=O)O)cc2Cl)cccc1-c1cccc(OCCCCCCC(=O)NO)c1,CD274 with PD-1,"PD-1/PD-L1 binding, inhibitor, HTRF",,,,88.1
Cc1cccc(-c2n[nH]c(=S)[nH]2)c1,CELF1 del215-384,"CELF1-RNA binding, inhibitor, fluorescence polarization",,"20 nM CELF1, together with: 10 nM RNA",,480 ± 140
